Measurements pooled from the literature.
Parts stem from different laboratories: compare values within a part only.
Chain of UniProt P10721 (whole entry, unmodified, looked up): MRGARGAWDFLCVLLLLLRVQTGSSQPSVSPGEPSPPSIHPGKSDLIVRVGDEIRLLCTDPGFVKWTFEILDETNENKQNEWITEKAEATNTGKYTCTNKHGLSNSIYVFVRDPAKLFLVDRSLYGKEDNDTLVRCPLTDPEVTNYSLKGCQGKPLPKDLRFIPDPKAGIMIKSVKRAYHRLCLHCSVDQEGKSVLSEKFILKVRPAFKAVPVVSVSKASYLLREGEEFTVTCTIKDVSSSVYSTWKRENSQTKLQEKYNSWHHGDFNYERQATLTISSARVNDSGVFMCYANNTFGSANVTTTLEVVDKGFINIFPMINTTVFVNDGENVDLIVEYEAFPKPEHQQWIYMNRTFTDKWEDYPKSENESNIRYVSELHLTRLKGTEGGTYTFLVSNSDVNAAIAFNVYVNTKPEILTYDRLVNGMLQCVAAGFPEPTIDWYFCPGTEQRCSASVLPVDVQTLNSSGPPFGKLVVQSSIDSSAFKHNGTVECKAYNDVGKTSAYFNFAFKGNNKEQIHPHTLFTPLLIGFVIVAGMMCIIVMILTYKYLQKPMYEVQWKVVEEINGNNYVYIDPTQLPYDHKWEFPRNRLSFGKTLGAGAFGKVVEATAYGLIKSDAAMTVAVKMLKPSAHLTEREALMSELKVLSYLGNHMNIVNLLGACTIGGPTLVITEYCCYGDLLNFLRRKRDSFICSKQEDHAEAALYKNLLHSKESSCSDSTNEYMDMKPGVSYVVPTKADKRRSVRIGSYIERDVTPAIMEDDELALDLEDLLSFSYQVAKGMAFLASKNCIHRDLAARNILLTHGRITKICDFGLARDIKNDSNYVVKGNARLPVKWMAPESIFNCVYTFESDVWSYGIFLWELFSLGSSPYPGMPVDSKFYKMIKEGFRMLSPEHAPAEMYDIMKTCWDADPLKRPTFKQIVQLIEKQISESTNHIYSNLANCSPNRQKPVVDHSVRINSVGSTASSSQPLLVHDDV
Chain of UniProt Q08881 (whole entry, looked up): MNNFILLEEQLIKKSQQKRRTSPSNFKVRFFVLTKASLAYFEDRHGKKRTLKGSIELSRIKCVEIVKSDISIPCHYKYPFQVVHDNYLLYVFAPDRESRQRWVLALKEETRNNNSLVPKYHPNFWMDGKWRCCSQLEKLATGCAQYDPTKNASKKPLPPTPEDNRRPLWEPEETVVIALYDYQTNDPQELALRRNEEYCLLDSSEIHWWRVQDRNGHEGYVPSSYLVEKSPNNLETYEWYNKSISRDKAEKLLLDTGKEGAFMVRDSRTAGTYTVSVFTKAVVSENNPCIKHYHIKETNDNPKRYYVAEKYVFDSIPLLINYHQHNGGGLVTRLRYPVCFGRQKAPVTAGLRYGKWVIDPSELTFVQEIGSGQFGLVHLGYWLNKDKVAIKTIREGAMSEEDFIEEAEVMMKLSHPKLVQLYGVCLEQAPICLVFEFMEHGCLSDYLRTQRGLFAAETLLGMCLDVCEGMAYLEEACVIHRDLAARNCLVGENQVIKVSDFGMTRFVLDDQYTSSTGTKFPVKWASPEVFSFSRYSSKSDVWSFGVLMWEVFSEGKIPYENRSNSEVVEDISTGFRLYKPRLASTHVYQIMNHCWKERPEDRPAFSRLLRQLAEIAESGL
Chain of UniProt P35916 (whole entry, looked up): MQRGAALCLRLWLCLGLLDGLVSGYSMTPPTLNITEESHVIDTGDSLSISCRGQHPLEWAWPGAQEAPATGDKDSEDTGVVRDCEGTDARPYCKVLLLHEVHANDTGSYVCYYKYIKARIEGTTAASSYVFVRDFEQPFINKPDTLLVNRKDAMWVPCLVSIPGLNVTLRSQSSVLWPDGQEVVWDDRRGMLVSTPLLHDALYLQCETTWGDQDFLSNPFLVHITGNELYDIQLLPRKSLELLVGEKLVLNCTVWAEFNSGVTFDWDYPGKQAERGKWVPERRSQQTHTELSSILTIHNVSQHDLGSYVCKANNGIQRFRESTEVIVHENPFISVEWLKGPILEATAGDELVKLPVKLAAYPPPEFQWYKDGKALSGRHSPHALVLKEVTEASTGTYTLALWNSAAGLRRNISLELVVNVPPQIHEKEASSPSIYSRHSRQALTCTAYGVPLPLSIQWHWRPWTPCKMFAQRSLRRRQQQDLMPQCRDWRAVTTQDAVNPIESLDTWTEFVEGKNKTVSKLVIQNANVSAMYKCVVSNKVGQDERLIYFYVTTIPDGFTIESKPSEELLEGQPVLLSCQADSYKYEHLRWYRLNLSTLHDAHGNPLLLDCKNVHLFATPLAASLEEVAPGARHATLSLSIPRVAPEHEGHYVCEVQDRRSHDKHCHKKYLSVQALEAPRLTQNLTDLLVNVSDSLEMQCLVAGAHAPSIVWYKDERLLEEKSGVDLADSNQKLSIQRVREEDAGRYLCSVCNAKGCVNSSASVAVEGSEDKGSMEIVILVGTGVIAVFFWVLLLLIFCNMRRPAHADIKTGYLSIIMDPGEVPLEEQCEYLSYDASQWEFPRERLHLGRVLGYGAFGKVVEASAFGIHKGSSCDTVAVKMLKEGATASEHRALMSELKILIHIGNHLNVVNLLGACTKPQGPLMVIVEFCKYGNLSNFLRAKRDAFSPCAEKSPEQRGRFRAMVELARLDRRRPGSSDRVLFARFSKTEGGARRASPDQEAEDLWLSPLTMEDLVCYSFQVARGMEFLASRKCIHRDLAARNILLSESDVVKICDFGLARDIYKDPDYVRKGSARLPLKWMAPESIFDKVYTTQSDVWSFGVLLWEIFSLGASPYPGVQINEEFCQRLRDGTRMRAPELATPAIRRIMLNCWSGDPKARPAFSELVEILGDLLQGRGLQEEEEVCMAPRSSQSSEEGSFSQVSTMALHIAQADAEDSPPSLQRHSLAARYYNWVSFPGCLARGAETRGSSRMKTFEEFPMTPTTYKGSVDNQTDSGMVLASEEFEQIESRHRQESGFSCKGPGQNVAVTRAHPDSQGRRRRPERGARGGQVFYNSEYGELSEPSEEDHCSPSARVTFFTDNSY
Chain of UniProt O94921 (whole entry, looked up): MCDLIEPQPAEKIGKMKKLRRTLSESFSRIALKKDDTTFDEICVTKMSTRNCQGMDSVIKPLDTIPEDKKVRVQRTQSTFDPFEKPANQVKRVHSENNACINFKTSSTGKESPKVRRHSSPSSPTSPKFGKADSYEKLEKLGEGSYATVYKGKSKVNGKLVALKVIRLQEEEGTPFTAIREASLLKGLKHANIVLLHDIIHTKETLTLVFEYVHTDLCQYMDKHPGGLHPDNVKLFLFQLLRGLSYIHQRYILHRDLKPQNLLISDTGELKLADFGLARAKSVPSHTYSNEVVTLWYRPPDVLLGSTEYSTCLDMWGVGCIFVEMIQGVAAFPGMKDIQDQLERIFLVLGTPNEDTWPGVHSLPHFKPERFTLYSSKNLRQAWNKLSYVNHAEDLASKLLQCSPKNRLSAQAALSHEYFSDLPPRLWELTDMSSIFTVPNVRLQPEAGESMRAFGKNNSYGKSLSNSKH
Chain of UniProt Q9UM73 (whole entry, looked up): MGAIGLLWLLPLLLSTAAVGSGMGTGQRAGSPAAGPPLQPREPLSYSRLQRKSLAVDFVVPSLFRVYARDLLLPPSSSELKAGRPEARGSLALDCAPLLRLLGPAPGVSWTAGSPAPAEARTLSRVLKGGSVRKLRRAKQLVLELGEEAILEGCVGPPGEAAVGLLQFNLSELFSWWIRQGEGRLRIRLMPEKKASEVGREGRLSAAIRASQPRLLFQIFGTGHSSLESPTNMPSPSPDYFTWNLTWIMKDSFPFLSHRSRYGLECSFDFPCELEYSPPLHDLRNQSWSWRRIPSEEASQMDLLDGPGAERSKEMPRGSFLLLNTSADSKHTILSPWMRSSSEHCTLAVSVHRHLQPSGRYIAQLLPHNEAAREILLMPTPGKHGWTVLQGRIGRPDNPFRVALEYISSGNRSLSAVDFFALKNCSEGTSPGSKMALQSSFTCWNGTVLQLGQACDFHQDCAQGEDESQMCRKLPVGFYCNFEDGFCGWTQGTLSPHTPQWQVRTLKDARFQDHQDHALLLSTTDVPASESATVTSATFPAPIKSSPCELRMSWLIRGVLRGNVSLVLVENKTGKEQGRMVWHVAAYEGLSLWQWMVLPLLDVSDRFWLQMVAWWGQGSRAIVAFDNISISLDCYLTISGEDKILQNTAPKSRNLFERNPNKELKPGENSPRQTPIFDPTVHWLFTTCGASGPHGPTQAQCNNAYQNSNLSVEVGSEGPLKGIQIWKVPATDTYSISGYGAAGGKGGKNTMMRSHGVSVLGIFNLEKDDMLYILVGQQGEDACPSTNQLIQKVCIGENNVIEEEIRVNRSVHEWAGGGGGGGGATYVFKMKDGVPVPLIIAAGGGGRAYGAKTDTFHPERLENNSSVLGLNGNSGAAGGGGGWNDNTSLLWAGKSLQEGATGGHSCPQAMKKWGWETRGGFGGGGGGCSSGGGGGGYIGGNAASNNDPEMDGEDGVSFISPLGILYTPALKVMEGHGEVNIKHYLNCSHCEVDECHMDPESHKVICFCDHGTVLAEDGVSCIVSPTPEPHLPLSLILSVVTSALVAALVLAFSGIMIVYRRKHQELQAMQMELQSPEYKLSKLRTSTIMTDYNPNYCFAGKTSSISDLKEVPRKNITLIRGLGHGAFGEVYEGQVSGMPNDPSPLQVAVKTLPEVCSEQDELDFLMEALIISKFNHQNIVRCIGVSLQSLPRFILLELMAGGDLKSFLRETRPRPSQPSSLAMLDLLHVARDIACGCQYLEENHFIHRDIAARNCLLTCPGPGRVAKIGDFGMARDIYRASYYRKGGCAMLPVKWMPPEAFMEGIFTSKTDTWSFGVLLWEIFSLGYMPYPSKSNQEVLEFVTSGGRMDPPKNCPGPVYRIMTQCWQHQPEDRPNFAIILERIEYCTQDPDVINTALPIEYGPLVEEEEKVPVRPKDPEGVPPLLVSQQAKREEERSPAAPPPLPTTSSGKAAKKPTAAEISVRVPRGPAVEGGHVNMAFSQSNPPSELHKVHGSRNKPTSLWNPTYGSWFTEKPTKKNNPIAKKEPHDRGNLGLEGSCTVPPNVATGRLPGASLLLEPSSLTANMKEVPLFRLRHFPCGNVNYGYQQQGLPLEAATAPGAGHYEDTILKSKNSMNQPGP

Set 1
SMILES: O=C1NC(=O)C(c2c[nH]c3ccccc23)=C1c1c[nH]c2ccccc12
Effect on: enzyme activity
Action: inhibitor
Tested at: 0.5 µM
Reference: control
SRC (Homo sapiens, UniProt P12931) — remaining activity: 93.7%.
It gave 91.1% for remaining activity (MATK (Homo sapiens, UniProt P42679)).
The remaining activity was 101% (FYN (Homo sapiens, UniProt P06241)).
It gave 83.5% for remaining activity (FER (Homo sapiens, UniProt P16591)).
It gave 90.8% for remaining activity (PASK (Homo sapiens, UniProt Q96RG2)).
The remaining activity was 95.7% (ALK (Homo sapiens, UniProt Q9UM73)).
PKN1 (Homo sapiens, UniProt Q16512) — remaining activity: 84.6%.
For Insulin receptor (INSR, Homo sapiens, UniProt P06213): remaining activity read 99.6%.
It gave 88.5% for remaining activity (FGR (Homo sapiens, UniProt P09769)).
The remaining activity was 35.2% (FLT4 (Homo sapiens, UniProt P35916)).
For ITK (Homo sapiens, UniProt Q08881): remaining activity read 102%.
For CDC42BPA (Homo sapiens, UniProt Q5VT25): remaining activity read 89.9%.
It gave 103% for remaining activity (NLK (Homo sapiens, UniProt Q9UBE8)).
PRKX (Homo sapiens, UniProt P51817) — remaining activity: 99.5%.

Set 2
Host: mouse
Matrix: microsomes or S9
Tested at: 2 µM
Time: 0.5 h
Cn1nc(CNC(=O)C2CC(=O)N(C3CCCCC3)C2)c2c1CCN(S(C)(=O)=O)C2 (stereo not drawn) gave a remaining compound of 58.9%.
With Cc1c(C(=O)N[C@H]2CCOC[C@H]2C2CCOCC2)c2cc(O)ccc2n1C the remaining compound was 23.2%.
For N#Cc1c(-c2ccccc2)cc(O)n2c1nc1ccccc12, the remaining compound was 2.55%.
With CC1(C)CCN(C(=O)c2cc(C#N)cs2)c2cc(Br)ccc21 the remaining compound was 56.9%.
Nc1ncc(Br)cc1S(=O)(=O)NCCC(=O)NCc1ccco1 gave a remaining compound of 1.31%.
Cc1ccccc1Cn1c(=O)n(Cc2ccc(F)cc2)c(=O)c2nccnc21 has a remaining compound of 36.1%.
The remaining compound of NS(=O)(=O)c1ccc(-c2nc3cscc3c(=O)[nH]2)cc1 is reported as 70.5%.
With Brc1ccc2c(c1)C1CC(c3ccco3)=NN1C(c1ccncc1)O2 (stereo not drawn) the remaining compound was 25%.
With c1cc2c(cc1OCc1cn(CC3CCCNC3)nn1)CCC2 (stereo not drawn) the remaining compound was 84.8%.
O=C(CCC1N=C(O)N(Cc2ccco2)C1=O)Nc1ccc2cc[nH]c2c1 (stereo not drawn) has a remaining compound of 96%.
For Cc1cccc(-n2nc(-c3cnn(C)c3C)c(Cl)c2-c2cnn(C)c2C)c1, the remaining compound was 2.74%.
With O=C(NCCCCCCNC(=O)N1CCCCC1)N1CCCCC1 the remaining compound was 0.206%.

Set 3
SMILES: O=C(NCc1ncc(C(F)(F)F)cc1Cl)c1ccc2c(c1)C1(CCS(=O)(=O)CC1)[C@@H](C1CC1)N2S(=O)(=O)c1ccc(F)cc1
Effect on: cell-free assay
Technique: competition with immobilised ligand
Tested at: 1 µM
EGFR (Homo sapiens, UniProt P00533, del747-752/P753S) — remaining binding: 85%.
TTK (Homo sapiens, UniProt P33981) — remaining binding: 100%.
For SRPK3 (Homo sapiens, UniProt Q9UPE1): remaining binding read 100%.
It gave 100% for remaining binding (PRKAA2 (Homo sapiens, UniProt P54646)).
For WNK3 (Homo sapiens, UniProt Q9BYP7): remaining binding read 70%.
MST1R (Homo sapiens, UniProt Q04912) — remaining binding: 100%.
It gave 83% for remaining binding (SGK3 (Homo sapiens, UniProt Q96BR1)).
The remaining binding was 74% (PLK2 (Homo sapiens, UniProt Q9NYY3)).
It gave 100% for remaining binding (CDK14 (Homo sapiens, UniProt O94921)).
It gave 64% for remaining binding (KIT (Homo sapiens, UniProt P10721, D816H)).
The remaining binding was 71% (CAMK4 (Homo sapiens, UniProt Q16566)).
The remaining binding was 89% (KIT (Homo sapiens, UniProt P10721, D816V)).

Set 4
SMILES: CC(=O)N[C@@H](Cc1c[nH]c2ccccc12)C(=O)N[C@@H](CCC(=O)C=[N+]=[N-])C(=O)OC(C)C
Matrix: EL4 tumour
Dose: dose not given
Reference: vehicle
The “log2 fold change” was -1.29 (refers to: CoA-glutathione*; mouse, EL4 tumour-bearing).
It gave 0.443 for “log2 fold change” (refers to: salicylate; mouse, EL4 tumour-bearing).
For refers to: 4-imidazoleacetate; mouse, EL4 tumour-bearing: “log2 fold change” read -0.297.
For refers to: ribose 1-phosphate; mouse, EL4 tumour-bearing: “log2 fold change” read -0.294.
The “log2 fold change” was -0.113 (refers to: dimethylglycine; mouse, EL4 tumour-bearing).
The “log2 fold change” was 0.926 (refers to: ergothioneine; mouse, EL4 tumour-bearing).
The “log2 fold change” was -0.512 (refers to: pipecolate; mouse, EL4 tumour-bearing).
The “log2 fold change” was -1.34 (metabolomics, refers to: 2-hydroxy-4-(methylthio)butanoic acid; mouse).
For refers to: gamma-tocotrienol; mouse, EL4 tumour-bearing: “log2 fold change” read -0.307.
refers to: sulfate*; mouse, EL4 tumour-bearing — “log2 fold change”: 0.27.
The “log2 fold change” was -0.261 (refers to: gamma-glutamylthreonine; mouse, EL4 tumour-bearing).
It gave 0.241 for “log2 fold change” (metabolomics, refers to: adenosine 3',5'-diphosphate; mouse).
The “log2 fold change” was 0.367 (refers to: N-acetylglucosamine 6-phosphate; mouse, EL4 tumour-bearing).
